Results of several laboratories.
A part holds a random share of what one study measured. Substitutions count along the parent as printed.

Series 1
Target: Eukaryotic initiation factor 4A-I (EIF4A1, Homo sapiens, UniProt P60842, residues 1-406, full length assumed)
UniProt P60842, sequence (whole entry, looked up): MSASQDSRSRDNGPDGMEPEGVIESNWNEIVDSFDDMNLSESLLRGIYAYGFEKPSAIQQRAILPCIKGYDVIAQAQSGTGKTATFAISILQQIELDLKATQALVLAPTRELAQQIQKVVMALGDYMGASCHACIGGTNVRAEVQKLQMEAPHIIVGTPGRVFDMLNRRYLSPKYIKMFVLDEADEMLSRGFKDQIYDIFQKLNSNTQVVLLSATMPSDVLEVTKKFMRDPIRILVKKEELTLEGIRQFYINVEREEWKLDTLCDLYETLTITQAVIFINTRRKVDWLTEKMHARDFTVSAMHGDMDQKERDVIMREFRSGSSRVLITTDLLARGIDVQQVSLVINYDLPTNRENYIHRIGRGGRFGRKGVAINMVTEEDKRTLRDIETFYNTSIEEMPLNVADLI
Technique: RNA Bind-n-Seq
Molecule type: RNA
Sample: in vitro
Tested at: 90 pmol
Setting: 4-mer, random 30-nt RNA, single round
Together with: 3 µM DMDA-PatA, 2 mM ADP, 2 mM phosphate
Relative to: input library
Reading: higher = stronger binding
| Oligonucleotide | 4-mer enrichment [fold] |
| --- | --- |
| CGGC | 0.952 |
| CCCG | 0.641 |
| GUUC | 0.764 |
| CAAU | 0.839 |
| UGAG | 1.58 |

Series 2
Target: Ras GTPase-activating protein-binding protein 1, full length (G3BP1, Homo sapiens, UniProt Q13283)
UniProt Q13283, sequence (whole entry, looked up): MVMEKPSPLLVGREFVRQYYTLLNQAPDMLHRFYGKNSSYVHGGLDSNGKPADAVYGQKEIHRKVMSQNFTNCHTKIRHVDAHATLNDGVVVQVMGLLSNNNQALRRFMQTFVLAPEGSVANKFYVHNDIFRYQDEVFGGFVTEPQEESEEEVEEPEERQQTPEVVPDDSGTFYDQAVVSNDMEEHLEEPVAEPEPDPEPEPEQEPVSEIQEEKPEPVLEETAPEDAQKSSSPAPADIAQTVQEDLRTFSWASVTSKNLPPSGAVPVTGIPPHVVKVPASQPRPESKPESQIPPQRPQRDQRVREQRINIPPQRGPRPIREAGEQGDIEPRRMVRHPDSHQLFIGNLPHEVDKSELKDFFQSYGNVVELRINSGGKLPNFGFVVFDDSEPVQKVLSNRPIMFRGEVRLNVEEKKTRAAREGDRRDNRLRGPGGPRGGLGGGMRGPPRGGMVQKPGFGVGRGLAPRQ
Technique: RNA Bind-n-Seq
Molecule type: RNA
Sample: in vitro
Tested at: 200 nM
Setting: whole 134-nt RNA, ends assumed
Together with: 150 mM LiCl
Relative to: input library
Reading: higher = stronger binding
Library: 7-deaza-guanosine replaces G
All sequences stand within: GGGAGUUCUACAGUCCGACGAUC … UGGAAUUCUCGGGUGUCAAGG
| Oligonucleotide | log2 enrichment |
| --- | --- |
| CACAGACAACACGCACCCACACAGACACAGAGGGAAGGGGUUGGGAUGGGGACAGGGUGCACAGCAGGGCGGGGAAAGACCCCAGCCCCU | 1.24 |
| UCGUUCCCCCCGCCACGAGAAGAAGAAGAAGGUCCGUAAAUACUGGGACGUGCCACCCCCAGGCUUUGAGCACAUCACCCCAAUGCAGUA | 0.0227 |
| UGGGAGGUGGAUUUUGUUUAUUUUUUUAGCUCAUUUCCAGAGGUGGGAAUUUUUUUUUAAUAUGUGUCAUGAAUAAAGUUGUUUUUGAAA | -0.666 |
| UCAAGUCCUGUGCUACACAUCGUAUGUACCGAAUCGGUUUGGAAAGGUUUUUGGAAAGUAUUAUGUUACGCCGUUCGGAUCUGCACUUCC | -0.493 |
| UCAAGUCCUGUGCUACACAUCGUAUGUACCGAAUCGGGGUUGGGGUUGGGUUGGAAAGUAUUAUGUUACGCCGUUCGGAUCUGCACUUCC | -0.206 |
| AAGUCCUGUGCUACACAUCGUAUGUACCGAAUCGGGGAGGGGAGGGGUUUUUGGGGAAAGUAUUAUGUUACGCCGUUCGGAUCUGCACUU | 0.463 |
| CUGUGCUACACAUCGUAUGUACCGAAUCGGUUUUUUUGGGGUUUUUUUGGGUUUUUUUGGGGAAAGUAUUAUGUUACGCCGUUCGGAUCU | 1.58 |
| UCAAGUCCUGUGCUACACAUCGUAUGUACCGAAUCGGGAAAGGGUGGGAAAGGGAAAGUAUUAUGUUACGCCGUUCGGAUCUGCACUUCC | -0.377 |

Series 3
Target: UBE2C UBC core domain (UniProt O00762)
Technique: yeast two-hybrid
Sample: yeast
Setting: mostly zero background
Relative to: not given
Reading: higher = stronger interaction
B1: PHF21A RING domain (UniProt Q96BD5); chain SPTSTDGDIHEDFCSVCRKSGQLLMCDTCSRVYHLDCLDPPLKTIPKGMWICPRCQDQMLKKEEAIPW
B2: TRIM8 RING domain (UniProt Q9BZR9); chain WKNCFEEELICPICLHVFVEPVQLPCKHNFCRGCIGEAWAKDSGLVRCPECNQAYNQKPGLE
Target sequence (chain): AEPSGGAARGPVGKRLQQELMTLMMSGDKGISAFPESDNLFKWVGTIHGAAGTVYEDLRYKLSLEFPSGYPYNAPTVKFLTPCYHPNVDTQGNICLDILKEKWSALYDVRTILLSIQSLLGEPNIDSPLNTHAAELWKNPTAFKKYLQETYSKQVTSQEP
| Molecule | lacZ reporter activity |
| --- | --- |
| VTLSLTLPITCHICLGKVRQPVICINNHVFCSICIDLWLKNNSQCPACRVPITPENPCK (OBI1 RING domain (UniProt Q5W0B1)) | 0 |
| QLRRLQEERTCKVCMDKEVSIVFIPCGHLVVCKDCAPSLRKCPICRSTIKGTVRTF (BIRC3 RING domain (UniProt Q13489)) | 0 |
| KTLSRFGIQPCSICLGDAKDPVCLPCDHVHCLRCLRAWFASEQMICPYCLTALPDEFSPA (RNF213 RING domain (UniProt Q63HN8)) | 0 |
| QLRRLQEERTCKVCMDKEVSVVFIPCGHLVVCQECAPSLRKCPICRGIIKGTVRTF (BIRC2 RING domain (UniProt Q13490)) | 0 |
| QLQDIKEQTMCPVCLDRLKNMIFLCGHGTCQLCGDRMSECPICRKAIERRILLY (MIB1 RING domain (UniProt Q86YT6)) | 0 |
| B1 (PHF21A RING domain) | 0 |
| B2 (TRIM8 RING domain) | 0 |
| DAIPSLSECQCGICMEILVEPVTLPCNHTLCKPCFQSTVEKASLCCPFCRRRVSSWTRYH (RNF168 RING domain (UniProt Q8IYW5)) | 0 |

Series 4
Target: RNA binding protein fox-1 homolog 2, RRM domain, GST-SBP tag (RBFOX2, Homo sapiens, UniProt O43251-10, residues 100-194)
Technique: RNA Bind-n-Seq
Molecule type: RNA
Sample: in vitro
Tested at: 365 nM
Setting: natural RNA segment, single round, ends assumed
Relative to: no-protein control
Reading: higher = stronger binding
All sequences stand within: GGGAGUUCUACAGUCCGACGAUC … UGGAAUUCUCGGGUGCCAA
Construct (chain): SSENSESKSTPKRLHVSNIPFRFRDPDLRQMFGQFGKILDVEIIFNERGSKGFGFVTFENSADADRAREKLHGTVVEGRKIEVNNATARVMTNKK
| Oligonucleotide | RBNS enrichment (R) |
| --- | --- |
| CCUCUCAAACGAUCUUUAGAUAGUUAACUUCUACUACUAUUUAACGUUAUCUUUUAGCACUCAUAGAACAAACCAAGAUAUGGAAGAAGACAUAUUCAAAAGGUGGGCUU | 0.671 |
| UUUUUCCUUUACAUUUCUAGUAGUUUCCUUACAGAAAGGACCUGCAUUUUUAUUAAUGUGUAGAUUUAUGGUCUGAUCUGAAGAUGUUUGAGUAAUAUAUUUUUAAGAAC | 0.502 |
| GCCCUGACCUUCUCCUGACCUGGCCUUUGACUCCCCGGAGUGGAGUGGGGUGGGAGAACCUCCUGGGCCGCCAGCCAGAGCCGGUCUUUAGGCUGUGUUGUUCGCCCAGG | 0.255 |
| CCAAUGCUAGGACACUGGCCAUGUGCACACCAGCACUCAAGACAAGAAGCCAGCCUCCCGGCCCAGCUGGCCUGGGCAGCCCCAGUGCCCUCAGAAUUACUAUUUUUGUU | 0.249 |
| UUUUCUGACUGAGCCAAUAGUGGUUGGGGAACUCUUGAAAAAGGGGAGAGAAUGGCUGGGUGCUGGGGAGUUCCCCCCUCCGAGCCCUCCUUCCCGGCCCAACCUGAGGG | 0.186 |
| UUGAGAAAAAAAUGUAUCAGACUUUUAUGAUUUGAAUGAAAUGUAUUAUAGAAAAAAAUAAACACUUAAAAUAAUGUUAGUCUCAUUACUAGUGGGUCAGGAUAUUUUUA | 3.51 |
| ACCCAGUCUUGUCCCCUGAAUUUUAUCUGUGUGCUGGGUGGCCUGGCUGAUGCAGAGGCCUGCUAAGAGAACGUACUCUUACCUGCUGCCAGUGAGACAUCGUAUCUGUG | 1.4 |
| UUAUUUUUCUCACUCGAAGAAACUAUAUAGGGUUGUUUUUCCUUUAGCUUGUGCUCAAGUCCUCUUGCUGUGUUUUCAGAAGCACUCACAUGUUCUUUCUUUUCCUGAGU | 0.378 |
| UUAGCAAUAUUAGCAUUUCAAUCAGCGAUCUGAGUGUUAGUUGUUUUUCCUUUACAUUUCUAGUAGUUUCCUUACAGAAAGGACCUGCAUUUUUAUUAAUGUGUAGAUUU | 0.329 |
| CUUACAAGGAGGGGUUACCAUGUAUCACACCUAAUCUUCCCAAUGUUUGGGAUAUUAAAACACAAAGUCCUUAACAUGCCAGGCUCAAGGUCUUAUAAGAGUUCUAGAUU | 0.354 |
| UCCAAAUUCACAGCAGUGGAUCCCAUGCCACUUUGCUGUCCUGAGCACCCCAGACUUGACUGUGUAAAUAAGAGUGUUUCAUUCAAAUGUUAAUAAACUUUACACAGUAU | 0.237 |
| CUGCCCUACCUAAUUGCACUUCCAGUCCUGUCUGUCCACAUAUGUACGUGUAUAUAAUUAUACAUAUAUAUAUAUCUAUUUUGCCCAGGUCUGGGUUUCGUUUUUACCCA | 0.526 |

Series 5
Target: Histone acetyltransferase KAT6A, winged helix 1, GST fusion (KAT6A, Homo sapiens, UniProt Q92794, residues 1-85)
Technique: protein binding microarray
Molecule type: double-stranded DNA, one strand shown
Sample: in vitro
Tested at: not given
Setting: 8-mer, flanks averaged, mean of 2 arrays, mostly near background
Relative to: not given
Reading: higher = stronger binding
Construct (chain): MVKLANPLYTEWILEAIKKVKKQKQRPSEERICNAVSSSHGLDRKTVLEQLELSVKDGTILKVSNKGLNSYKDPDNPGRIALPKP
| Oligonucleotide | E-score |
| --- | --- |
| CCGAGGAC | 0.115 |
| CTCAGGCA | -0.136 |
| CCATACAA | -0.204 |
| AAGTGAGA | -0.0928 |
| AATACTGC | -0.00971 |
| AGCATACG | 0.088 |
| AGTGATTG | -0.198 |
| AGAATGCA | -0.169 |
| CTTGGAAA | -0.152 |
| AACATGCT | -0.0874 |
| ATCAGCCA | -0.097 |
| CTACCCAC | -0.0814 |
| CAAGAACC | -0.124 |
| ACATTTGC | -0.00698 |
| GATGAATC | -0.186 |
| AATATGAC | -0.128 |
| CAACAGAG | -0.00313 |
| CGTGCATA | 0.03 |

Series 6
Target: CCNF, cyclin fold, Cln2 fusion (human)
Technique: yeast growth competition, sequencing
Sample: yeast
Setting: strong parent motif
Relative to: not given
Reading: higher = stronger binding
Starting sequence: SCAPER docking peptide (human); SNARRSLNFGGST; partner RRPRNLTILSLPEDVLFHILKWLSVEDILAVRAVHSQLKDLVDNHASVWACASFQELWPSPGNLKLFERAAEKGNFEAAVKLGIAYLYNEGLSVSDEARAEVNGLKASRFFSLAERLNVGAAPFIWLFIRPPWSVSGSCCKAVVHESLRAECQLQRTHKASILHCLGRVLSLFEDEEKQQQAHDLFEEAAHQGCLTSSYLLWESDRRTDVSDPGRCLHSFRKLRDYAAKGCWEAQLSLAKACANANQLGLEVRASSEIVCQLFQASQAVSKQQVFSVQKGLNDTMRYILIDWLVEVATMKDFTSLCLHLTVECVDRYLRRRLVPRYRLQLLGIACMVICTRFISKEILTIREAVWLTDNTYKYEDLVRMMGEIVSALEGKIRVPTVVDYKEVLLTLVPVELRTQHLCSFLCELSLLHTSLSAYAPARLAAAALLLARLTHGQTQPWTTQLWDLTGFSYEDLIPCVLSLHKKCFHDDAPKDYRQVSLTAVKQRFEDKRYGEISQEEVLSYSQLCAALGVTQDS
| Variant | normalised enrichment score |
| --- | --- |
| SNARRSLNFDGST [G10D] | 6.68 |
| SNARRSLNFWGST [G10W] | 7.74 |
| QNARRSLNFGGST [S1Q] | 7.42 |
| SNARRSLNSGGST [F9S] | 0.243 |
| SNARASANFGGST [R5A L7A] | 0.113 |
| SNVRRSLNFGGST [A3V] | 8.04 |
| SNARRSANFGGST [L7A] | 1.83 |
| SNARRSLNWGGST [F9W] | 2.55 |
| SNARRSLNFGCST [G11C] | 7.2 |
| SNARRSSNFGGST [L7S] | 0.993 |
| SNARRSLNFGGSW [T13W] | 7.35 |
| ENARRSLNFGGST [S1E] | 7.29 |
| SNARRSLNPGGST [F9P] | 1.52 |
| HNARRSLNFGGST [S1H] | 7.52 |
| SNARRSLNFGWST [G11W] | 7.82 |

Series 7
Target: Sal-like protein 4, full length isoform A (SALL4, Homo sapiens, UniProt Q9UJQ4, residues 1-1053)
UniProt Q9UJQ4, sequence (whole entry, looked up): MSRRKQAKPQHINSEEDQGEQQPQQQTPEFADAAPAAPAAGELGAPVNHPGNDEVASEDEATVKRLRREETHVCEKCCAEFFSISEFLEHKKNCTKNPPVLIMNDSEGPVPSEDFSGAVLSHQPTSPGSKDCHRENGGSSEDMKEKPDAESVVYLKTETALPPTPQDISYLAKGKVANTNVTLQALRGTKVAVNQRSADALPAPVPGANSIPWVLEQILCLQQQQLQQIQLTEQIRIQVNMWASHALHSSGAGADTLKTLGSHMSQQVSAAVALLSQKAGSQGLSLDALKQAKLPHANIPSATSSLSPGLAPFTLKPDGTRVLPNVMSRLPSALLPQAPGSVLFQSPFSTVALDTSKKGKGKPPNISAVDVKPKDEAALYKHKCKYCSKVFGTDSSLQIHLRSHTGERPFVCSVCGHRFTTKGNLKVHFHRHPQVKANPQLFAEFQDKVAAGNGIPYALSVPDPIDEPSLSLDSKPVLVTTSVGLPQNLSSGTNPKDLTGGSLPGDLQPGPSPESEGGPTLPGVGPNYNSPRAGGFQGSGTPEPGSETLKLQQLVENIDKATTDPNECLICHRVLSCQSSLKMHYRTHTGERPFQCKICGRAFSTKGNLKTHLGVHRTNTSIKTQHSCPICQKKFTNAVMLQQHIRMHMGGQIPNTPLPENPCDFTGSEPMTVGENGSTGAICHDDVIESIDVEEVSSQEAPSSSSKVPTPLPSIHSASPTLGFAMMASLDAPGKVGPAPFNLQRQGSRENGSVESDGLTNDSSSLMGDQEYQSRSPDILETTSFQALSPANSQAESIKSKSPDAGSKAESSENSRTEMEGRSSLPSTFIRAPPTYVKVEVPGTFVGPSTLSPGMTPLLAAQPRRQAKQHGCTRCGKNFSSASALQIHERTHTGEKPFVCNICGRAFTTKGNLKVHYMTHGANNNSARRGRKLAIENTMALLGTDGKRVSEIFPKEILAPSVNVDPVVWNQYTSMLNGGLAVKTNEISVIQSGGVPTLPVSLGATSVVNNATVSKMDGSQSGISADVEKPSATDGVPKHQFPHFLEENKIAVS
Technique: universal PBM
Molecule type: double-stranded DNA, one strand shown
Sample: in vitro
Tested at: 600 nM
Setting: 8-mer, flanks averaged, mean of replicates
Reading: higher = stronger binding
| Oligonucleotide | E-score |
| --- | --- |
| ATACCTGA | 0.196 |
| GCCCATTA | -0.0206 |
| AACTTAGC | 0.035 |
| TAGGGTGA | -0.00863 |
| GAGATCCC | -0.165 |
| GCTCTTAA | 0.0442 |
| AAATAGCT | 0.148 |
| ATACGGGG | -0.144 |
| CGTCACCC | -0.223 |
| AAGCTGCC | -0.21 |
| AAACAGCG | 0.134 |
| CAAAATCG | 0.171 |
| CGTAGCCA | -0.0459 |
| ATATCGGG | 0.0615 |
| AGCACGAA | -0.034 |
| CATCCTGG | -0.137 |
| AACTCACG | 0.035 |
| GGTTAATA | 0.282 |
| CAAAATGA | 0.226 |
| CTAGTACA | 0.12 |

For quick reference, copied from above (series 3):
| Molecule | lacZ reporter activity |
| --- | --- |
| B1 (PHF21A RING domain) | 0 |
| KTLSRFGIQPCSICLGDAKDPVCLPCDHVHCLRCLRAWFASEQMICPYCLTALPDEFSPA (RNF213 RING domain (UniProt Q63HN8)) | 0 |
| B2 (TRIM8 RING domain) | 0 |
| QLRRLQEERTCKVCMDKEVSVVFIPCGHLVVCQECAPSLRKCPICRGIIKGTVRTF (BIRC2 RING domain (UniProt Q13490)) | 0 |
| QLQDIKEQTMCPVCLDRLKNMIFLCGHGTCQLCGDRMSECPICRKAIERRILLY (MIB1 RING domain (UniProt Q86YT6)) | 0 |
| QLRRLQEERTCKVCMDKEVSIVFIPCGHLVVCKDCAPSLRKCPICRSTIKGTVRTF (BIRC3 RING domain (UniProt Q13489)) | 0 |
| DAIPSLSECQCGICMEILVEPVTLPCNHTLCKPCFQSTVEKASLCCPFCRRRVSSWTRYH (RNF168 RING domain (UniProt Q8IYW5)) | 0 |
